Experimental data collected from several papers.
Each line is one published result; not all experiments were run side by side. “And” joins repeats or separate records; there may be more than shown. In brackets after ≈: the same amount, converted by molar mass.
Organism: Streptococcus pyogenes

SMILES | test | test system | setting | scale | quantity | value
CN[C@H](CC(C)C)C(=O)N[C@H]1C(=O)N[C@@H](CC(N)=O)C(=O)N[C@H]2C(=O)N[C@H]3C(=O)N[C@H](C(=O)N[C@H](C(=O)O)c4cc(O)cc(O)c4-c4cc3ccc4O)[C@H](O)c3ccc(c(Cl)c3)Oc3cc2cc(c3O[C@@H]2O[C@H](CO)[C@@H](O)[C@H](O)[C@H]2O[C@H]2C[C@](C)(N)[C@H](O)[C@H](C)O2)Oc2ccc(cc2Cl)[C@H]1O | broth microdilution |  |  |  | MIC50 | 0.5 µg/mL (≈ 0.345 µM)
OB(O)c1csc2ccccc12 |  |  | 100 µM, 10 h | relative to: untreated | growth | 71.4% and 44.5% and 43.9% and 48.5% and 89.3%
CN[C@H](CC(C)C)C(=O)N[C@H]1C(=O)N[C@@H](CC(N)=O)C(=O)N[C@H]2C(=O)N[C@H]3C(=O)N[C@H](C(=O)N[C@H](C(=O)O)c4cc(O)cc(O)c4-c4cc3ccc4O)[C@H](O)c3ccc(c(Cl)c3)Oc3cc2cc(c3O[C@@H]2O[C@H](CO)[C@@H](O)[C@H](O)[C@H]2O[C@H]2C[C@](C)(N)[C@H](O)[C@H](C)O2)Oc2ccc(cc2Cl)[C@H]1O | broth microdilution | 8007 |  |  | MIC | 0.5 µg/mL
CN[C@H](CC(C)C)C(=O)N[C@H]1C(=O)N[C@@H](CC(N)=O)C(=O)N[C@H]2C(=O)N[C@H]3C(=O)N[C@H](C(=O)N[C@H](C(=O)O)c4cc(O)cc(O)c4-c4cc3ccc4O)[C@H](O)c3ccc(c(Cl)c3)Oc3cc2cc(c3O[C@@H]2O[C@H](CO)[C@@H](O)[C@H](O)[C@H]2O[C@H]2C[C@](C)(N)[C@H](O)[C@H](C)O2)Oc2ccc(cc2Cl)[C@H]1O |  | ATCC 13813 |  |  | MIC range | 0.5 µg/mL (≈ 0.345 µM)
CC(=O)NC[C@H]1CN(c2ccc(N3CCOCC3)c(F)c2)C(=O)O1 | broth microdilution |  |  |  | MIC90 | 0.5 µg/mL (≈ 1.48 µM)
CC[C@H]1OC(=O)[C@H](C)[C@@H](O[C@H]2C[C@@](C)(OC)[C@@H](O)[C@H](C)O2)[C@H](C)[C@@H](O[C@@H]2O[C@H](C)C[C@H](N(C)C)[C@H]2O)[C@](C)(O)C[C@@H](C)C(=O)[C@H](C)[C@@H](O)[C@]1(C)O | broth microdilution | sensitive clinical isolate | overnight, 37 °C |  | MIC | < 1 µg/mL
NC(=O)CC[C@@H](C(=O)NC[C@H]1O[C@@H](c2c[nH]c(=O)[nH]c2=O)[C@H](O)[C@@H]1O)N(O)C(=O)CN=C(N)N |  | 12384 | 16 h |  | MIC | 3.13 µg/mL
CN[C@H](CC(C)C)C(=O)N[C@H]1C(=O)N[C@@H](CC(N)=O)C(=O)N[C@H]2C(=O)N[C@H]3C(=O)N[C@H](C(=O)N[C@H](C(=O)O)c4cc(O)cc(O)c4-c4cc3ccc4O)[C@H](O)c3ccc(c(Cl)c3)Oc3cc2cc(c3O[C@@H]2O[C@H](CO)[C@@H](O)[C@H](O)[C@H]2O[C@H]2C[C@](C)(N)[C@H](O)[C@H](C)O2)Oc2ccc(cc2Cl)[C@H]1O | broth microdilution | sensitive clinical isolate | overnight, 37 °C |  | MIC | < 1 µg/mL
CC(C)C[C@@H](NC(=O)[C@H](C)NC(=O)CNC(=O)[C@@H](NC=O)C(C)C)C(=O)N[C@@H](C)C(=O)N[C@@H](C(=O)N[C@H](C(=O)N[C@@H](C(=O)N[C@@H](Cc1c[nH]c2ccccc12)C(=O)N[C@H](CC(C)C)C(=O)N[C@@H](Cc1c[nH]c2ccccc12)C(=O)N[C@H](CC(C)C)C(=O)N[C@@H](Cc1c[nH]c2ccccc12)C(=O)N[C@@H](C(=O)N[C@@H](Cc1c[nH]c2ccccc12)C(=O)NCCO)C(C)C)[C@H](C)O)C(C)C)C(C)C | broth microdilution | SSI-9 |  |  | MIC | 0.067 µM

Repeated from above:
SMILES | test | test system | setting | scale | quantity | value
NC(=O)CC[C@@H](C(=O)NC[C@H]1O[C@@H](c2c[nH]c(=O)[nH]c2=O)[C@H](O)[C@@H]1O)N(O)C(=O)CN=C(N)N |  | 12384 | 16 h |  | MIC | 3.13 µg/mL
